{"data": "Assay results of several laboratories", "note": "Numbered parts are unrelated; each lists some results of a single study. Positions count from the first letter of the parent shown."}
{"data": "Study 1", "target": "inorganic phosphate, free oxyanion", "technique": "microfluidic competitive inhibition", "medium": "in vitro, cell-free expressed", "concentration": "not given", "setting": "derived from inhibition constants, unchanged parent 615000 nM", "direction": "lower = stronger binding", "starting sequence": "PafA, mature enzyme, eGFP fusion (Elizabethkingia meningoseptica, UniProt Q9KJX5); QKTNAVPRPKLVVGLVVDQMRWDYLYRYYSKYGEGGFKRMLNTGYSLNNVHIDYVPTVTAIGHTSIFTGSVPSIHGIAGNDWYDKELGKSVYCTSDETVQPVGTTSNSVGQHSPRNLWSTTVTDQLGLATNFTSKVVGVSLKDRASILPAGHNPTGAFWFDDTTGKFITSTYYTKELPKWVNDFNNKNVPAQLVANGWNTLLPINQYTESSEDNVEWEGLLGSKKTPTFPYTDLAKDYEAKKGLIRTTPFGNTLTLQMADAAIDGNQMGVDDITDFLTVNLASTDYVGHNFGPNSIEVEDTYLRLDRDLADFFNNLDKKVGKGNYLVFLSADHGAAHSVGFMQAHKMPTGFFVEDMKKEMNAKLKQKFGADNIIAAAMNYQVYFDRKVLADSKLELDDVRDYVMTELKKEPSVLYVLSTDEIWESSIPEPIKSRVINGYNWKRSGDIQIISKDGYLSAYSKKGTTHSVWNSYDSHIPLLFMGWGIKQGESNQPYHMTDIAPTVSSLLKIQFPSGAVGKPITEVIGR"}
{"Substitution": "V122G", "phosphate dissociation constant [µM]": 469}
{"Substitution": "T164G", "phosphate dissociation constant [µM]": 451}
{"Substitution": "N437V", "phosphate dissociation constant [µM]": 406}
{"Substitution": "Y455G", "phosphate dissociation constant [µM]": 397}
{"Substitution": "K2G", "phosphate dissociation constant [µM]": 535}
{"Substitution": "H63V", "phosphate dissociation constant [µM]": 93.9}
{"Substitution": "V320A", "phosphate dissociation constant [µM]": 551}
{"Substitution": "I524V", "phosphate dissociation constant [µM]": 594}
{"data": "Study 2", "target": "CCNE1, cyclin fold, Cln2 fusion (human)", "technique": "yeast growth competition, sequencing", "medium": "yeast", "setting": "strong parent motif", "reference": "not given", "direction": "higher = stronger binding", "starting sequence": "viral docking peptide; TSVRRALFTGGSD"}
{"Substitution": "A6C", "normalised enrichment score": 5.28}
{"Substitution": "L7R", "normalised enrichment score": 0.298}
{"Substitution": "G11P", "normalised enrichment score": 6.14}
{"Substitution": "S12A", "normalised enrichment score": 5.21}
{"Substitution": "R4H", "normalised enrichment score": 0.236}
{"Substitution": "A6Q", "normalised enrichment score": 7.39}
{"Substitution": "V3R", "normalised enrichment score": 0.259}
{"Substitution": "G10I", "normalised enrichment score": 5.19}
{"Substitution": "T9K", "normalised enrichment score": 4.54}
{"Substitution": "R5D", "normalised enrichment score": -0.0761}
{"Substitution": "G11M", "normalised enrichment score": 5.04}
{"Substitution": "F8Q", "normalised enrichment score": 0.154}
{"Substitution": "G10P", "normalised enrichment score": 5.24}
{"Substitution": "G10C", "normalised enrichment score": 5.44}
{"Substitution": "T9W", "normalised enrichment score": 3.21}
{"Substitution": "A6D", "normalised enrichment score": 1.05}
{"Substitution": "G10K", "normalised enrichment score": 4.33}
{"Substitution": "T9V", "normalised enrichment score": 5.78}
{"Substitution": "A6K", "normalised enrichment score": 7.03}
{"Substitution": "R4W", "normalised enrichment score": 0.832}
{"Substitution": "A6V", "normalised enrichment score": 6.97}
{"Substitution": "F8K", "normalised enrichment score": -0.147}
{"Substitution": "V3M", "normalised enrichment score": 0.549}
{"Substitution": "V3P", "normalised enrichment score": 1.42}
{"Substitution": "G11V", "normalised enrichment score": 5.64}
{"data": "Study 3", "target": "FOSL2, bZIP domain (human)", "technique": "DHFR protein complementation", "medium": "yeast", "setting": "single substitutions, most at no-binding floor", "reference": "wild-type JUN-FOS pair", "direction": "higher = stronger binding", "starting sequence": "JUN, bZIP domain (human); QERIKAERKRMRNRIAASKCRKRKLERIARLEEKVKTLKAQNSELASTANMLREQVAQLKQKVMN; partner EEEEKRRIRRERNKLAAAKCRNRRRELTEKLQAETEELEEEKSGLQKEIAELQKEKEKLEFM"}
{"Substitution": "S43M", "binding fitness [natural log]": 0.0669}
{"Substitution": "T37I", "binding fitness [natural log]": 0.0102}
{"Substitution": "L52Q", "binding fitness [natural log]": -1.5}
{"Substitution": "V35L", "binding fitness [natural log]": -0.0705}
{"Substitution": "L59R", "binding fitness [natural log]": -0.946}
{"Substitution": "E54S", "binding fitness [natural log]": -0.0692}
{"Substitution": "A40C", "binding fitness [natural log]": -0.072}
{"Substitution": "K36T", "binding fitness [natural log]": -0.0192}
{"data": "Study 4", "target": "UDP-N-acetylglucosamine--peptide N-acetylglucosaminyltransferase 110 kDa subunit (OGT, Homo sapiens, UniProt O15294)", "effect on": "phage display binding", "technique": "phage display panning NGS", "form": "peptide", "setting": "panning round 3", "reference": "OGT-panned over input library", "UniProt O15294, sequence (whole entry, looked up)": "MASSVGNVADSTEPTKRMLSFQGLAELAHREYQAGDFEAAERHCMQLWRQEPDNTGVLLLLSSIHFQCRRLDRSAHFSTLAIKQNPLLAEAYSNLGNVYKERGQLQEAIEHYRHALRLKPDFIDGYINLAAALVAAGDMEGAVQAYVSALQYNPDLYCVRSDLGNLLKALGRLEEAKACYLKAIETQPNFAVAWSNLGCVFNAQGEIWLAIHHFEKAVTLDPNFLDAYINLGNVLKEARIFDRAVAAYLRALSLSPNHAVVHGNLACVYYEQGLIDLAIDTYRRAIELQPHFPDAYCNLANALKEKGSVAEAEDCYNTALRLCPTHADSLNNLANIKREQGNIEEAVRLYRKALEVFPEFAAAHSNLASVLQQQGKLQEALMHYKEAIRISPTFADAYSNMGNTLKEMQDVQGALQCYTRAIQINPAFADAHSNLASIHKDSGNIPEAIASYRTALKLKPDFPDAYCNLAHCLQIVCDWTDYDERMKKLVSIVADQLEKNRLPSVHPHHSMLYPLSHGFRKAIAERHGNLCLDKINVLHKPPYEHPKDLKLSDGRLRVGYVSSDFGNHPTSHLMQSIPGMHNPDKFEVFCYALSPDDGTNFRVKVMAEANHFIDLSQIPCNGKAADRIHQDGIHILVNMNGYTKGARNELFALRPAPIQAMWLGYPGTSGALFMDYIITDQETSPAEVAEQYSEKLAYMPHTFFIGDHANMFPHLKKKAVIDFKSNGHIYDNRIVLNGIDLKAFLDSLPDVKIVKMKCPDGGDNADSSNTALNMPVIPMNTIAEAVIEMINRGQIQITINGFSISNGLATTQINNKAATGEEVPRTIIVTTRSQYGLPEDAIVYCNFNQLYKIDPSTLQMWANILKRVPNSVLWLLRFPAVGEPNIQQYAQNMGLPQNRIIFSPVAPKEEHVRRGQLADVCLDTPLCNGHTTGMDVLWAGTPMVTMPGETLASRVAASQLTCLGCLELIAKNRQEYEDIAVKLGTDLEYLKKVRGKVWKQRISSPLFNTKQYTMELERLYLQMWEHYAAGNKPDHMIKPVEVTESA"}
{"Molecule": "QQQYRDYNPKYIIHY", "fold enrichment": 2.01}
{"Molecule": "QNLEFFPKYQLVTR", "fold enrichment": 2.29}
{"Molecule": "NNNIYWPKYQITNTL", "fold enrichment": 2.1}
{"Molecule": "YATPWTPQYQIMYN", "fold enrichment": 2.61}
{"Molecule": "YFTTPMYQIYYERA", "fold enrichment": 2.91}
{"Molecule": "VVESMFMPEYQIVPV", "fold enrichment": 3.07}
{"Molecule": "EFFPPAYQLVVPYGD", "fold enrichment": 3.04}
{"Molecule": "VDYRPAYPIDWAPWK", "fold enrichment": 2.55}
{"Molecule": "RYYEPVYQIVATNSN", "fold enrichment": 1.52}
{"note": "Repeated from above (study 2):"}
{"Substitution": "V3R", "normalised enrichment score": 0.259}
{"Substitution": "G10I", "normalised enrichment score": 5.19}
{"Substitution": "T9K", "normalised enrichment score": 4.54}
{"Substitution": "R5D", "normalised enrichment score": -0.0761}
{"Substitution": "G11M", "normalised enrichment score": 5.04}
{"Substitution": "F8Q", "normalised enrichment score": 0.154}
